Published values gathered from unrelated publications.
Compare with care: the assays were run in different laboratories.

SMILES	test	test system	conditions	how to read	measurement	result
O=C(COc1ccc(Cl)cc1)NC12CC(c3nnc([C@H]4C[C@@H](OC(F)(F)F)C4)o3)(C1)C2	measured: Myalgia	human	oral, 45 mg once daily, 14 days	–	adverse event incidence	16.7%
CN1CCc2nc(C(=O)N[C@@H]3C[C@@H](C(=O)N(C)C)CC[C@@H]3NC(=O)C(=O)Nc3ccc(Cl)cn3)sc2C1	–	human	no serious adverse events, added: enzalutamide	–	adverse events	not toxic
CC(C)N(CCCCOCC(=O)NS(C)(=O)=O)c1cnc(-c2ccccc2)c(-c2ccccc2)n1	measured: Fatigue	healthy male human	oral, 200 µg	–	adverse event incidence	4.5%
CO[C@H]1/C=C/O[C@@]2(C)Oc3c(C)c(O)c4c(O)c(c(/C=N/N5CCN(C)CC5)c(O)c4c3C2=O)NC(=O)/C(C)=C\C=C\[C@H](C)[C@H](O)[C@@H](C)[C@@H](O)[C@@H](C)[C@H](OC(C)=O)[C@@H]1C	–	healthy humans	oral, dose not given	–	adverse event Irritability	8.3%
C[C@@H](N)c1cc(Cl)ccc1Cn1c(=S)[nH]c(=O)c2[nH]ccc21	–	human severe renal impairment	oral, 2.5 mg single dose	–	adverse events causing discontinuation	0%
CNC(=O)c1ccc(-c2cnc3ncc(Cc4ccc5ncccc5c4)n3n2)cc1F	–	human, Japanese cohort	oral, 400 mg, organising pneumonia, grade 3/4	–	adverse events leading to treatment discontinuation	0 % patients
O=C(Nc1cnccc1Cl)N1CCN(Cc2ccc3c(c2)OC(F)(F)O3)CC1	measured: Haematoma	human healthy young men	10 mg, multiple dose	–	adverse event incidence	0%
C=CC(=O)NC1CCN(c2ncc3ncnc(Nc4ccc(Oc5ccc6c(c5)ncn6C)c(C)c4)c3n2)CC1	measured: musculoskeletal disorders (SOC)	human male	oral, dose not given, CTCAE on-treatment AEs	–	adverse events incidence	6%
CO[C@H]1/C=C/O[C@@]2(C)Oc3c(C)c(O)c4c(O)c(c(/C=N/N5CCN(C)CC5)c(O)c4c3C2=O)NC(=O)/C(C)=C\C=C\[C@H](C)[C@H](O)[C@@H](C)[C@@H](O)[C@@H](C)[C@H](OC(C)=O)[C@@H]1C	measured: respiratory thoracic mediastinal disorders	healthy human participants	oral, 600 mg, added: gepotidacin 1500 mg	–	adverse event incidence	0%
CC(=O)N(C)[C@H]1CCN(C(=O)c2cnc3c(c2)C[C@](C)(c2ccc(F)cc2)N3)C1	measured: stomach discomfort	human	oral, 30 mg once daily	–	adverse event duration	2 days
O=C(NCCN1CCCC1)c1cc(-c2ccc(CN3CCOCC3)cc2)nc2ccc(F)cc12	blurred vision, single ascending dose	human	oral, 2100 mg	–	adverse event duration	0.771 days
CNC(=O)c1ccc(-c2cnc3ncc(Cc4ccc5ncccc5c4)n3n2)cc1F	measured: nausea	healthy human subjects	oral, dose not given, inhibition cohort, any grade, all-causality	baseline: subjects	adverse event incidence	11.1%
C[C@@H](c1nc(-c2ccc(C#N)cc2)cs1)[C@](O)(Cn1cncn1)c1cc(F)ccc1F	–	healthy humans	oral, dose not given, added: ketoconazole	–	adverse event Pruritus	0%

Some of these lines once more:
SMILES	test	test system	conditions	how to read	measurement	result
O=C(COc1ccc(Cl)cc1)NC12CC(c3nnc([C@H]4C[C@@H](OC(F)(F)F)C4)o3)(C1)C2	measured: Myalgia	human	oral, 45 mg once daily, 14 days	–	adverse event incidence	16.7%
CN1CCc2nc(C(=O)N[C@@H]3C[C@@H](C(=O)N(C)C)CC[C@@H]3NC(=O)C(=O)Nc3ccc(Cl)cn3)sc2C1	–	human	no serious adverse events, added: enzalutamide	–	adverse events	not toxic
